Published values from different studies.
Parts stem from different laboratories: compare values within a part only.

Series 1
Target: Sal-like protein 4, full length isoform A (SALL4, Homo sapiens, UniProt Q9UJQ4, residues 1-1053)
Chain of UniProt Q9UJQ4 (whole entry, looked up): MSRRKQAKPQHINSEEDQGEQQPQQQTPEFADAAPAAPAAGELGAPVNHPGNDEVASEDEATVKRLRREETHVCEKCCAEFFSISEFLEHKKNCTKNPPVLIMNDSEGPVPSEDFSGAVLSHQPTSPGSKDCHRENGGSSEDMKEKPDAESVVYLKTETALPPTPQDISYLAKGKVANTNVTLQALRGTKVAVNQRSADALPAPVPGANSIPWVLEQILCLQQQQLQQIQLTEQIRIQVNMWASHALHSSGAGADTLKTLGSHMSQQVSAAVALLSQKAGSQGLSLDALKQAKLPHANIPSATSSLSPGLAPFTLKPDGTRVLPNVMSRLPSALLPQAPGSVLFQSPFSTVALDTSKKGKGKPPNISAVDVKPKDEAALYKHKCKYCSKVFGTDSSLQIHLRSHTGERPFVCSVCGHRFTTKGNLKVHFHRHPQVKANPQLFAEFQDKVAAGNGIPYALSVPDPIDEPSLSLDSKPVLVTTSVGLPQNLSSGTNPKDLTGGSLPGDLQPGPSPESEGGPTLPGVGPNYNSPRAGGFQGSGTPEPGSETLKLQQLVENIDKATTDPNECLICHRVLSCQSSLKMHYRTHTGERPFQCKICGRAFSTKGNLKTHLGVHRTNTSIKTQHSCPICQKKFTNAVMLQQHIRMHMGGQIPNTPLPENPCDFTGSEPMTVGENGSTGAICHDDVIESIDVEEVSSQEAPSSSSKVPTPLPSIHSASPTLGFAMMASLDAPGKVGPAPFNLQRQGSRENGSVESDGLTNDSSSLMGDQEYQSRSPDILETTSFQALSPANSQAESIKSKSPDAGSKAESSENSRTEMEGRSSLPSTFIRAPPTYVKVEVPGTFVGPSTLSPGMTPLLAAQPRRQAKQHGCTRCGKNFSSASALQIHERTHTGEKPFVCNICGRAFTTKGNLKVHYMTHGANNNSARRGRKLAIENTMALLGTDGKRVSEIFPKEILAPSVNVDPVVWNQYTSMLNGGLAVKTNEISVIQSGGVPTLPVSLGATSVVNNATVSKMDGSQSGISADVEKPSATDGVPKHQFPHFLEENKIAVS
Technique: universal PBM
Molecule type: double-stranded DNA, one strand shown
Sample: in vitro
Tested at: 600 nM
Setting: 8-mer, flanks averaged, mean of replicates
Reading: higher = stronger binding
Measurement: E-score
AACGCGTG: 0.0504
CAGCTTAG: -0.159
ACAGATGG: -0.0846
CGAGGAAA: -0.00509
AGCTGACA: -0.102
ATAGGAGA: 0.0444
GGCTGGAA: -0.187
CACTCGGA: -0.0126
AACAGATG: 0.0723
ATGAGCTG: -0.0157
CTCGTTAA: 0.0405
ACCCGACC: -0.237
ACCTATTG: 0.231
AGGGCCTG: -0.337
GATCACCA: -0.0522
ACGCAAAT: 0.00385
TATGTGCA: 0.164
GATAGTCC: -0.0322
CTCATAGC: -0.0301
ACTCAAAT: 0.254
GTTGCTGA: 0.0362
ATTCGTAC: 0.196
CAGGGAGA: -0.259
CAGACTAG: -0.181
CGTCGCGC: -0.273

Series 2
Target: RNA binding protein fox-1 homolog 2, RRM domain, GST-SBP tag (RBFOX2, Homo sapiens, UniProt O43251-10, residues 100-194)
Technique: RNA Bind-n-Seq
Molecule type: RNA
Sample: in vitro
Tested at: 365 nM
Setting: natural RNA segment, single round, ends assumed
Baseline: no-protein control
Reading: higher = stronger binding
Measurement: RBNS enrichment (R)
Shared flanks, not repeated: GGGAGUUCUACAGUCCGACGAUC … UGGAAUUCUCGGGUGCCAA
Target sequence (chain): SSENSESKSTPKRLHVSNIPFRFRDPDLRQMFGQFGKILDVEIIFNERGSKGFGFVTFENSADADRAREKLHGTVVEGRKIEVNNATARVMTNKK
UUCAUUCAUGACUGCUAUGUCCUGAGAAAAGUUCCGAUUUCUUUUAACAAAUGUCAUCAUGAUUAAGGAAAUGUCUGGCACUUUAAUGGCAAAUUAAUUGAGAAUGUAUG: 0.976
CAUGCUCUGUGCACAGGCACAGAGGACAUCUAACAAGAUCAUCGGACCCUAAUGCAAGUUCCAUGUUCACAGAAAAUUCAUGCACUCUGCGCAAACAGGACGAAAUGGUU: 0.341
CCUGGUAGAAACUAUUUCUGUUCCAGUCACAUUGCCAUCACUCUUGUACUGCCUGCCACCGCGGAGGAGGCUGGUGACAGGCCAAAGGCCAGUGGAAGAAACACCCUUUC: 0.502
GAGCGAUUCCAUAUCUCCACUCAGACCCUGUGGACUACAGUGUUCCGCUGUGGUGGCUGCCAAGAUGCCUUCUUAAACUUAUGCAAGGAAACCAAACCCUCCCACAGUUC: 0.276
UUCUAAGUCCCUCGAGUAAACGACAAUCAGGAAACGAACUCUCAGUGGCGGUGGUGCGUAGAACAUUAUGCUAAGGCCCAGAACUGAUCAGAGAAUUUGUUCACCACCGU: 0.37
GAUGGAAAGAUAUAAUUAACGAUCAAAGAGCUCUAAGAAAAUUGCAAAGAAGCCUUAAUGUUCAAGCUUUAGAAAGAUCAGAGCAAUUUUUCUCUUUCAGUCCAAACUAA: 0.713
GGCUUCACAUUGGGUCCUGGCCCGAGGAGCCUUGCUUCACUUACUUAGCCCCAGGCCUGGGCAGGGAUUUGGCCUUCCAGUGGAGUUUCCUGUACCCUGGUGUAGCUUUU: 0.347
UUCUGGGCUGAUGGGUGCCCUUUCCUGGCAGUCUCAGUCCAAAAGUGUUGACUGUGUCAUUAGUCCUUUGUCUAAGUAGGGCCAGGGCACCGUAUUCCUCUCCCAGGUGU: 0.255
UGGCCACCCCUCCCCAGUACAGGGGUGCUGCAGGUGGCAGAGUGAAUGUCCCCCAUCAUGUGGCCCAACUCUCCUGGCCUGGCCAUCUCCCUCCCCAGAAACAGUGUGCA: 11.3
CCAAAGGAUCCGUUGUAAAAAUAUAUAUAUAUAAAUAUAUGUAUAUCCAGUGCAAUCAACUGUCAUUUCUUUUUCCUUAAAACAUAUGAGUAUAUAGAAAGAAAAGUUAC: 0.818
CUUUGCUGCUUUUGGAUUGAGAUGGCGAAUCAAGGCUUCACUUCCUCUCUCUUCUGUCUUUAGAAAGCUGUGAUCGUGCGUGCAAUUAUUUGAAAGGCAACAUAGUCAAU: 0.503
UUGGGAACAUGUGGGGAAUUGUAUAUUGCGCUGAAUUAACUUCUCCCGCCUCUUGUAAUGCUCUGGUGGGUUCUUGUUUGGGAAUGCGAUAUUUUGUGGCUGGUUUAGCU: 6.79

Series 3
Target: Histone acetyltransferase KAT6A, both winged helices, GST fusion (KAT6A, Homo sapiens, UniProt Q92794, residues 1-181)
Technique: protein binding microarray
Molecule type: double-stranded DNA, one strand shown
Sample: in vitro
Tested at: not given
Setting: 8-mer, flanks averaged, mean of 2 arrays, mostly near background
Baseline: not given
Reading: higher = stronger binding
Measurement: E-score
Residues (chain): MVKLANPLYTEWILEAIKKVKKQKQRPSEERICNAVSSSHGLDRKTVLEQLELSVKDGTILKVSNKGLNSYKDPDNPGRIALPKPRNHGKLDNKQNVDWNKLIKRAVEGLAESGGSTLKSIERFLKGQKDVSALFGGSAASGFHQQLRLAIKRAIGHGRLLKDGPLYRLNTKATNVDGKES
CGTATCGC: 0.268
AGCTTGGC: -0.00605
AAGTAGGG: -0.268
TAAGACCA: -0.151
CTCCCCCA: -0.156
GCAGAACC: 0.0561
ACTCTCCG: 0.017
AAACTTTC: -0.145
ATTGGAGC: -0.144
ACGTACCT: -0.229
AGGATCGA: -0.0823
CACCACGC: 0.0685
ACTTTGAT: -0.193
CCTCCTCA: -0.0721
ACGTTCAG: -0.0194
ACTGGTAG: -0.173
CGAAGGAC: 0.098
AACGTGCT: -0.17
AAAAAGTC: -0.0344
CAGTTGGC: -0.0446
CTTCCTGC: -0.0926
GCATTTCA: -0.0756
AACGACGT: 0.121
CCGCGACA: 0.227
CATTAAGG: -0.103

Series 4
Target: PABPC1L2, full length, GST fusion (mouse, UniProt A0ABA7IW68)
Technique: RNAcompete
Molecule type: RNA
Sample: in vitro
Tested at: 20 nM
Setting: 7-mer, probes averaged, single round
Baseline: mean of 7-mers
Reading: higher = stronger binding
Measurement: 7-mer Z-score
Target sequence (chain): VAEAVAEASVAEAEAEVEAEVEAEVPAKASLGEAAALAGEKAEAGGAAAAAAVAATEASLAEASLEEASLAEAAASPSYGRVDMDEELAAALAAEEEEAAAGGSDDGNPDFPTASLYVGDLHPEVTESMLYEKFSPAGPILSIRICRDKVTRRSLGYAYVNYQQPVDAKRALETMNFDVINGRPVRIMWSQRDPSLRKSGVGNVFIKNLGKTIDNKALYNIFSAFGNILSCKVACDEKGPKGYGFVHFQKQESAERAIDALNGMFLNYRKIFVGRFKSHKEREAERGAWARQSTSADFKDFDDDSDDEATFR
UCAAGCA: -0.135
ACCCGUG: -0.238
CAGGUAA: 0.2
GGAAAGU: 0.0877
GGGCGCA: 0.401
GGUCGGG: 0.0932
UUCCCAU: -0.405
UAGCGUA: -0.0591
ACUAUCC: -0.325
AAUCGUG: 0.218
UUUUUCA: -0.211
GGAUGAU: -0.0337
UAACUGC: -0.28
GGGAGAA: 0.37
CUCCACG: -0.215
CAGGCAA: 0.321
GCUAGCG: -0.05
UGCCAAU: -0.213
CUGUGUG: -0.333
UUGAUAG: -0.18
UAUGAGA: 0.0334
CUAACCU: -0.2
AUCCCUA: -0.3
AGACUGA: -0.162
CCAUGAC: -0.249

Series 5
Target: Transcription factor Sp1 (SP1, Homo sapiens, UniProt P08047, residues 1-785, full length assumed)
Chain of UniProt P08047 (whole entry, looked up): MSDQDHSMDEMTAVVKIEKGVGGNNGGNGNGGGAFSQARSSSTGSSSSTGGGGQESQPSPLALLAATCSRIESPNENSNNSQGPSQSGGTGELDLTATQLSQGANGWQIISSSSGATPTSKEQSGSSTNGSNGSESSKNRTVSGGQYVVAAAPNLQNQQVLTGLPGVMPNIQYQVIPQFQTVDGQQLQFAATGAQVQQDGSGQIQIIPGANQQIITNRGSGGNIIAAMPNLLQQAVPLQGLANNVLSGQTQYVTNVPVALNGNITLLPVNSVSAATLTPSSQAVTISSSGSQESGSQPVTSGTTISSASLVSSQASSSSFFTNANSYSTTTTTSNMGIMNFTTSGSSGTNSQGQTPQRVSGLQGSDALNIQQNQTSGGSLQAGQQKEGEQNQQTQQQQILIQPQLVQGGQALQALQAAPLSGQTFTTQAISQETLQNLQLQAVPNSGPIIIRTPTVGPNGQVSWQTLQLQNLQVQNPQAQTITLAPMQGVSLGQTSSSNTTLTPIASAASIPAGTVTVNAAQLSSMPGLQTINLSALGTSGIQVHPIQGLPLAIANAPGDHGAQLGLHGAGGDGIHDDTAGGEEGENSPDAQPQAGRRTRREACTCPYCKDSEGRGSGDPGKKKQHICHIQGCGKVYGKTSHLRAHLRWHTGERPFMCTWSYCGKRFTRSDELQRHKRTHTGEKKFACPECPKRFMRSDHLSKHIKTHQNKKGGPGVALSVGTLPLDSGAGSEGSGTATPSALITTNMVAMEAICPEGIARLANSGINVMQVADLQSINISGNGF
Technique: protein-binding microarray
Molecule type: double-stranded DNA, one strand shown
Sample: in vitro
Tested at: not given
Setting: k-mer, scored over probes, only values ≥0.25
Reading: higher = stronger binding
Measurement: E-score
ACACCCCA: 0.344
CACCCCTA: 0.359
CCCCTCCC: 0.489
CTCCCACA: 0.277
ACGCCCTC: 0.263
CCCACCTC: 0.303
CACCCCTC: 0.405
AATATATG: 0.29
ACATGTAC: 0.265
CGATATTA: 0.278
ATTGGTGG: 0.256
ACATGTGG: 0.297
AGGAGGGG: 0.462
CATAACAA: 0.316
AACCCATA: 0.276
TCACCCCA: 0.354

Some of these lines once more (series 4):
UUCCCAU: -0.405
CAGGCAA: 0.321
GGGAGAA: 0.37
GGUCGGG: 0.0932
UAUGAGA: 0.0334
UAACUGC: -0.28
CUGUGUG: -0.333
GCUAGCG: -0.05
AUCCCUA: -0.3
UAGCGUA: -0.0591
CUAACCU: -0.2
AAUCGUG: 0.218
AGACUGA: -0.162
UGCCAAU: -0.213
GGAUGAU: -0.0337
GGGCGCA: 0.401
UUGAUAG: -0.18
